{"data": "Published values pooled from the literature", "PPO3": "PPO3 (Agaricus bisporus, UniProt C7FF04)", "CES3": "Carboxylesterase 3 (CES3, Homo sapiens, UniProt Q6UWW8)", "Proteasome subunit alpha type-2/Proteasome subunit alpha type-6 20S proteasome": "Proteasome subunit alpha type-2/Proteasome subunit alpha type-6, 20S proteasome (Homo sapiens, UniProt P25787+P60900)", "T1": "dsDNA, mismatch bulge, abasic at position 8; chain GATGATANAAGACAT; chain ATGTCTTGTATCATC", "T2": "DNA hairpin, hairpin, TTTT loop; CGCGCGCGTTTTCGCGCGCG", "note": "Each line is one published result; not all experiments were run side by side. ± marks the error that the study gave."}
{"SMILES": "COc1cc(F)c(C(C)C)cc1C1=C(CN2C(=O)O[C@H](c3cc(C(F)(F)F)cc(C(F)(F)F)c3)[C@@H]2C)CC(C)(C)CC1", "target": "Cholesteryl ester transfer protein (Homo sapiens, UniProt P11597)", "test": "enzyme activity", "test system": "healthy male subjects, plasma", "conditions": "oral, 200 mg single dose", "how to read": "reference: baseline", "quantity": "maximum inhibition", "result": "80.7%"}
{"SMILES": "CN(C)CCCNc1nc2cc(N)ccc2nc1NCc1ccccc1", "target": "T1, dsDNA, mismatch bulge, abasic at position 8", "test": "fluorescence quenching titration", "conditions": "pH 7.0, 25 °C", "quantity": "Kd", "result": "1790 nM"}
{"SMILES": "CCC[C@H]1CC[C@H](c2ccc(NC(=S)NC[C@@H]3[C@@H](O)[C@@H](O)[C@H]4[C@H](O)CCCN43)cc2)CC1", "target": "Alpha-mannosidase 2 (Homo sapiens, UniProt Q16706, Y354A)", "how to read": "reference: Y354A mutant over wild type", "quantity": "Ki ratio", "result": "~64 fold"}
{"SMILES": "O=C(NC[C@@H](Cc1ccc(F)cc1)N1CCC(O)(C(F)(F)F)CC1)C1(c2ccc(Cl)cc2)CCCC1", "target": "TRPA1 (Homo sapiens, UniProt O75762, M912A)", "test": "calcium influx, agonist", "how to read": "reference: M912A mutant over wild type", "quantity": "EC50 fold change", "result": "~25 fold"}
{"SMILES": "CC(=O)C12NC(C)(C)CC1(C)C(=O)C1=C2c2c(c3c4n2C(C)(C)CC2=C4C4(CC(C)(C)NC(C)(C4)C2=O)CC3(C)C)C(=O)C(C)(C)N1 (single isomer, unassigned; (+))", "target": "OPRK1 (Homo sapiens, UniProt P41145)", "test": "agonist, cAMP", "test system": "CHO", "conditions": "concentration not given", "quantity": "agonist activity", "result": "inactive"}
{"SMILES": "CCC(C(=O)O)N1CCc2cccc(F)c2C1 (stereo not shown)", "target": "DUSP3 (Homo sapiens, UniProt P51452)", "test": "ligand-observed 19F NMR", "conditions": "concentration not given, with: DUSP3 4 or 8 µM", "quantity": "binding", "result": "active"}
{"SMILES": "CC(C)C[C@H](NC(=O)[C@H](CC(N)=O)NC(=O)[C@H](CCCNC(=N)N)NC(=O)[C@@H](N)CS)C(=O)O", "target": "PPO3", "test": "enzyme activity, inhibitor", "conditions": "100 µM", "quantity": "remaining activity", "result": "6.74%"}
{"SMILES": "CCc1nc2cc3ccccc3cc2cc1C(=O)N1CCC[C@H]1C(=O)N[C@@H](C/C=C/C[C@H](NC(=O)[C@@H]1CCCN1C(=O)c1cc2cc3ccccc3cc2nc1CC)C(=O)N[C@@H](CCCCN)C(=O)NCCCN)C(=O)N[C@@H](CCCCN)C(=O)NCCCN", "target": "(CAG)10 RNA", "test": "SPR", "quantity": "residence time", "result": "330 s"}
{"SMILES": "[3H]C([3H])([3H])c1cnccc1CN1C[C@@H](c2cc(F)c(F)c(F)c2)CC1=O", "target": "SV2A (Homo sapiens, UniProt Q7L0J3)", "test": "radioligand binding, autoradiography", "test system": "human, post-mortem insula", "conditions": "2 nM", "quantity": "total binding", "result": "86 fmol/mg"}
{"SMILES": "Nc1ncnc2c1ncn2C1OC(COP(=O)(O)OP(=O)(O)OCC2OC(O)C(O)C2O)C(O)C1O (stereo not shown)", "target": "TRPM2 (Nematostella vectensis, UniProt A7T1N0, Y264A)", "test": "activator, inside-out patch clamp", "test system": "Nematostella vectensis TRPM2 Y264A", "conditions": "upper estimate, no added PIP2, with: 125 µM Ca2+", "quantity": "maximal open probability", "result": "~0.038"}
{"SMILES": "CNc1ccccc1C(=O)O[C@H]1C[C@H](n2cnc3c(N)ncnc32)O[C@@H]1COP(=O)(O)OP(=O)(O)O", "target": "Unconventional myosin-Va (Gallus gallus, UniProt Q02440, D297C/G292C/I296C/S293C/V295G)", "test": "van't Hoff analysis", "conditions": "concentration not given, with: 2 mM Mg2+", "quantity": "ΔS of ligand binding", "result": "-9.7 ± 1.4 cal/(mol·K)"}
{"SMILES": "COc1ccc(NC(=O)CCCCc2ccccc2)c(C)n1", "target": "CES3", "test": "substrate", "conditions": "50 µM, pH 8, 37 °C, enzyme purity 3%", "quantity": "specific activity", "result": "< 1 pmol/min/µg"}
{"SMILES": "CC1=C(/C=C/C=C\\C=C\\C(C)=C\\C=O)C(C)(C)CCC1", "target": "Rhodopsin, apoprotein (opsin) (RHO, Bos taurus, UniProt P02699)", "conditions": "2 h, dark, with: 40 mM hydroxylamine", "quantity": "retinal released", "result": "~2%"}
{"SMILES": "C[C@@]12CC[C@@H]3c4cc(Cl)c(O)cc4CC[C@H]3[C@@H]1CCC2=O", "target": "AKR1C1 (Homo sapiens, UniProt Q04828)", "test": "enzyme activity, inhibitor, absorbance", "conditions": "100 µM, pH 9", "quantity": "inhibition", "result": "45.1%"}
{"SMILES": "CC[C@H](C)[C@H](NC(=O)[C@H](CCCCN)NC(=O)[C@H](CCCCN)NC(=O)[C@@H](NC(=O)[C@H](CCC(=O)O)NC(=O)[C@H](CCC(=O)O)NC(=O)[C@H](CCC(=O)O)NC(=O)[C@H](CO)NC(=O)[C@H](CC(C)C)NC(=O)[C@H](CC(=O)O)NC(=O)[C@H](CC(C)C)NC(=O)[C@H](C)NC(=O)[C@H](CCCNC(=N)N)NC(=O)[C@H](CC(C)C)NC(=O)[C@H](CO)NC(=O)CNC(=O)CNC(=O)CNC(=O)CCCC[C@@H]1SC[C@@H]2NC(=O)N[C@@H]21)C(C)C)C(=O)N[C@@H](CC(C)C)C(=O)N[C@@H](CC(=O)O)C(=O)N[C@@H](CCC(=O)O)C(=O)N[C@H](C(=O)N[C@H](C(=O)N[C@@H](CCCCN)C(=O)N[C@@H](CC(=O)O)C(=O)O)C(C)C)[C@@H](C)CC", "target": "Fab B11 antibody (human)", "test": "binding, biolayer interferometry", "how to read": "reference: alanine mutant over wild type", "quantity": "Kd ratio", "result": 110}
{"SMILES": "Clc1ccc2ccc3[n+](c2c1)[Ir-3]12([c]4ccccc4-3)([c]3ccccc3-c3ccc4ccc(Cl)cc4[n+]31)[n+]1ccccc1-c1cccc[n+]12.F[P-](F)(F)(F)(F)F", "target": "Cyclin-dependent kinase 7, with cyclin H (CDK7, Homo sapiens, UniProt P50613)", "test system": "MDA-MB-231", "conditions": "3 µM, 4 h", "quantity": "co-immunoprecipitation", "result": "no effect"}
{"SMILES": "Cc1cccc(C)c1NC(=O)CC(C)NCc1cccc2ccccc12 (stereo not shown)", "target": "SCN4A (Homo sapiens, UniProt P35499, F1586C)", "test": "tonic block of sodium current, whole-cell patch clamp", "test system": "HEK293", "conditions": "0.1 Hz stimulation", "quantity": "Hill coefficient", "result": 1.7}
{"SMILES": "Cc1cc(N2CC[C@](C#N)(C3(C)CC3)C2=O)cc(C(=O)NCc2cc(F)cc(-c3cnn(C)c3)c2)n1", "target": "Proline--tRNA ligase (Plasmodium falciparum, UniProt Q8I5R7)", "test": "thermal shift", "conditions": "no substrate", "quantity": "melting temperature", "result": "64.2 °C"}
{"SMILES": "Cc1nnc(-c2ccc(CNC(=O)CCCCCOc3cccc4c3C(=O)N(C3CCC(=O)NC3=O)C4=O)cc2)nn1 (stereo not shown)", "target": "BRD4 (Homo sapiens, UniProt O60885)", "test": "degrader, immunoblot", "test system": "HeLa", "conditions": "concentration not given", "quantity": "protein level", "result": "no effect"}
{"SMILES": "CC(C)C[C@H](NC(=O)CNC(=O)[C@H](CC(C)C)NC(=O)[C@@H]1CCCN1C(=O)OCC1c2ccccc2-c2ccccc21)C(=O)N[C@@H](CCCNC(=N)N)C(=O)N[C@@H](CO)C(=O)N[C@@H](CCCCN)C(=O)O", "target": "MMP9 (Homo sapiens, UniProt P14780)", "test": "substrate, HPLC", "conditions": "500 µM, 72 h, pH 7.5, 37 °C", "quantity": "hydrolysis product", "result": "57%"}
{"SMILES": "CC(C)C[C@H](NC(=O)[C@H](CCC(=O)O)NC(=O)[C@@H](N)CS)C(=O)N[C@@H](CC(N)=O)C(=O)O", "target": "PPO3", "test": "enzyme activity, inhibitor", "conditions": "100 µM", "quantity": "remaining activity", "result": "72.8%"}
{"SMILES": "COc1ccc(NC(=O)Cc2ccccc2)c(C)n1", "target": "CES3", "test": "substrate", "conditions": "50 µM, pH 8, 37 °C, enzyme purity 3%", "quantity": "specific activity", "result": "< 1 pmol/min/µg"}
{"SMILES": "NS(=O)(=O)c1ccc(-n2nc(C(F)(F)F)cc2-c2ccc(F)cc2F)cc1", "target": "Prostaglandin G/H synthase 1 (Canis lupus familiaris, UniProt Q8HZR1)", "test": "enzyme activity in cells, inhibitor", "quantity": "IC20", "result": "22.6 µM"}
{"SMILES": "O=C(CN1CCOc2ccccc21)N(c1ccc(F)cc1)c1ccc(F)cc1", "target": "Proteasome subunit alpha type-2/Proteasome subunit alpha type-6 20S proteasome", "test": "proteolysis, activator, fluorogenic peptide", "test system": "purified 20S proteasome", "conditions": "up to 30 µM, with: Suc-LLVY-AMC, Z-LLE-AMC, Boc-LRR-AMC", "how to read": "reference: vehicle", "quantity": "maximum fold increase", "result": "5.1 ± 0.9"}
{"SMILES": "[Ru+2].[Ru+2].c1cnc2c(c1)c1nc(-c3ccc(OCCOCCOCCOCCOc4ccc(-c5nc6c7cccnc7c7ncccc7c6[nH]5)cc4)cc3)[nH]c1c1cccnc12.c1cnc2c(ccc3nccnc32)n1.c1cnc2c(ccc3nccnc32)n1.c1cnc2c(ccc3nccnc32)n1.c1cnc2c(ccc3nccnc32)n1", "target": "T2, DNA hairpin, hairpin, TTTT loop", "test": "BLI", "conditions": "pH 7.04, Na+ 100 mM", "quantity": "Kd", "result": "960 nM"}
{"SMILES": "NCCCNCCCCNCCCNCc1ccccc1", "target": "Peroxisomal N(1)-acetyl-spermine/spermidine oxidase (Mus musculus, UniProt Q8C0L6)", "test": "enzyme activity, substrate, fluorescence", "conditions": "pH 7.5", "quantity": "Km", "result": "200 nM"}
{"SMILES": "O=C1CSc2ccccc2N1CC(=O)N(c1ccc(F)cc1)c1ccc(F)cc1", "target": "Proteasome subunit alpha type-2/Proteasome subunit alpha type-6 20S proteasome", "test": "proteolysis, activator, fluorogenic peptide", "test system": "purified 20S proteasome", "conditions": "with: Suc-LLVY-AMC, Z-LLE-AMC, Boc-LRR-AMC", "quantity": "EC200", "result": "15 ± 3.3 µM"}
{"SMILES": "C=Cc1c(C)c2cc3nc(c4c5[nH]c(cc6nc(cc1[nH]2)C(C)=C6CC)c(C)c5C(=O)C4)[C@@H](CCC(=O)NCC(=O)N1CCC[C@H]1C(=O)N[C@@H](CC(C)C)C(=O)NCC(=O)N[C@@H](Cc1ccccc1)C(=O)N[C@@H](CCCNC(=N)N)C(=O)N[C@H](C(=O)NCC(=O)N[C@@H](CCCCNC(=O)CCCN(C)c1ccc(/N=N/c2ccc4nc5ccc(N(CC)CC)cc5[n+](-c5ccccc5)c4c2)cc1)C(N)=O)C(C)C)[C@@H]3C", "target": "Collagenase 3 (MMP13, Homo sapiens, UniProt P45452)", "test": "substrate", "conditions": "concentration not given, 24 h, 37 °C", "how to read": "reference: proteinase K", "quantity": "probe activation", "result": "~85%"}
